Experimental data of several laboratories.
Each line is one published result; not all experiments were run side by side.
RIPK1: Receptor-interacting serine/threonine-protein kinase 1 (RIPK1, Homo sapiens, UniProt Q13546)
Sequence of UniProt Q13546 (whole entry, looked up): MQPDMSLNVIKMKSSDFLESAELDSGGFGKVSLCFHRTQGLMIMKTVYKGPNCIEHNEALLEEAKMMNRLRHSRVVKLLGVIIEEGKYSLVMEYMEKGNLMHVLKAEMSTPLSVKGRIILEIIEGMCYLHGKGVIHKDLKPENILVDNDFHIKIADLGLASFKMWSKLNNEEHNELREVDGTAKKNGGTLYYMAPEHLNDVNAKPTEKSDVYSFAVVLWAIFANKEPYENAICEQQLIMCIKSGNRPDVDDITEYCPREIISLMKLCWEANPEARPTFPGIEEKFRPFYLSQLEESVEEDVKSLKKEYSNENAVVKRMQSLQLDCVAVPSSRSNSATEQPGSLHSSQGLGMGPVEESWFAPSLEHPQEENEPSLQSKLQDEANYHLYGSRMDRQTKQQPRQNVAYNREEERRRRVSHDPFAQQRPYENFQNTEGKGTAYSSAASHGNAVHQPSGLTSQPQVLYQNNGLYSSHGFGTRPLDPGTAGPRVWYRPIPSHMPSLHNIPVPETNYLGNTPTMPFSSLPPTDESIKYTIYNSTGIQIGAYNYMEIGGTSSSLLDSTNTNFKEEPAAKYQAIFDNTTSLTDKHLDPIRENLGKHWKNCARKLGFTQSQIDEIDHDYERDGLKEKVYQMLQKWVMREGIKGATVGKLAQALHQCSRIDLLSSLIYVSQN
Sequence of UniProt P20309 (whole entry, looked up): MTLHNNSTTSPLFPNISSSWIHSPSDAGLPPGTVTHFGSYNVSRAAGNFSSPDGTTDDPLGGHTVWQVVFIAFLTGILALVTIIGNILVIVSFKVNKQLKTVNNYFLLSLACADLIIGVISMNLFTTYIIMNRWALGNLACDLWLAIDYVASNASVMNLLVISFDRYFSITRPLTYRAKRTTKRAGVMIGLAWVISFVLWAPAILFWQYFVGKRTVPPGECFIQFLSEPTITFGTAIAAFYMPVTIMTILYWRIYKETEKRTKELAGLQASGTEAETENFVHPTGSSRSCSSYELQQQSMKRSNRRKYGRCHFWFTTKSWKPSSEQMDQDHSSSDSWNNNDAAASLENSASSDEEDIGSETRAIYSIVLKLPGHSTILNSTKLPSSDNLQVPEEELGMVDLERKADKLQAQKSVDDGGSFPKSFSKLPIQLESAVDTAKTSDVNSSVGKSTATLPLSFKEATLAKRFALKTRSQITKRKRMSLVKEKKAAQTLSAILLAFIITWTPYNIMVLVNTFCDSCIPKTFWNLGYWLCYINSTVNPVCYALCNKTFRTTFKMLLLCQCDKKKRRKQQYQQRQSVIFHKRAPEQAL
Sequence of UniProt P24666 (whole entry, looked up): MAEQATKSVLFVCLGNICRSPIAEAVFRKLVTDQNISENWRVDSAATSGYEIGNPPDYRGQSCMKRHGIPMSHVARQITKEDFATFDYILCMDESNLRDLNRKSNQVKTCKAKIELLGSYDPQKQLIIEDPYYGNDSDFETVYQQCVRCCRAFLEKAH
Sequence of UniProt P21462 (whole entry, looked up): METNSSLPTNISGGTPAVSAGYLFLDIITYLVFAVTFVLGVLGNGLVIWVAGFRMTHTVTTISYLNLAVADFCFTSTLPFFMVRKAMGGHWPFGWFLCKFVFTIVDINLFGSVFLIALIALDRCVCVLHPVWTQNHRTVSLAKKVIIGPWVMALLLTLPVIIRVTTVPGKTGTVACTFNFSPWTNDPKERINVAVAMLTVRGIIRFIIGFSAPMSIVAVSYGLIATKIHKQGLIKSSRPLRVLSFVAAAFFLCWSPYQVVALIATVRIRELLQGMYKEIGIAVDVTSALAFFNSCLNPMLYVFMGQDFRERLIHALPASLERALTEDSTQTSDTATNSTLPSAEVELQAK
Sequence of UniProt P10415 (whole entry, looked up): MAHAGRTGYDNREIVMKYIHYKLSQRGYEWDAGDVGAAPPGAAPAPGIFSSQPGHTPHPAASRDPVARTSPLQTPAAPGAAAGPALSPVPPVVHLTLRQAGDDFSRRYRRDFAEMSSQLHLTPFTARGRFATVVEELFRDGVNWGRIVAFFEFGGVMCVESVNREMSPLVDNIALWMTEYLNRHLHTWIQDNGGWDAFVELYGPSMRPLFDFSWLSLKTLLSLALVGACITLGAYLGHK
Sequence of UniProt Q92731 (whole entry, looked up): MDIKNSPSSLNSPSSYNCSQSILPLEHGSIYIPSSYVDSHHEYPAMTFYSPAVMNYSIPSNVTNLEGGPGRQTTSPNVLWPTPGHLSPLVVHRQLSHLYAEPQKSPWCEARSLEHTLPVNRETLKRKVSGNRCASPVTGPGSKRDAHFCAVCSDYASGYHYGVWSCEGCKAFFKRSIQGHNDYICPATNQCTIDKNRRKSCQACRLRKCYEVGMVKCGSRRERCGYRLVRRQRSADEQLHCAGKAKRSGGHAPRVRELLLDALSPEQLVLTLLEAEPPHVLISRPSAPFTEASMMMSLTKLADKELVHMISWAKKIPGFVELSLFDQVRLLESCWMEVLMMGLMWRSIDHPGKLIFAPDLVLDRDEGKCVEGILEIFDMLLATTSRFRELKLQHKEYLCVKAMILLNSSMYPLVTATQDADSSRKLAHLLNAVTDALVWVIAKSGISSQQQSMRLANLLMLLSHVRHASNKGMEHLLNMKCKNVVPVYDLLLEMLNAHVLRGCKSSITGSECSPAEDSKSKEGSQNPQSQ
Sequence of UniProt Q6GPI1 (whole entry, unmodified, looked up): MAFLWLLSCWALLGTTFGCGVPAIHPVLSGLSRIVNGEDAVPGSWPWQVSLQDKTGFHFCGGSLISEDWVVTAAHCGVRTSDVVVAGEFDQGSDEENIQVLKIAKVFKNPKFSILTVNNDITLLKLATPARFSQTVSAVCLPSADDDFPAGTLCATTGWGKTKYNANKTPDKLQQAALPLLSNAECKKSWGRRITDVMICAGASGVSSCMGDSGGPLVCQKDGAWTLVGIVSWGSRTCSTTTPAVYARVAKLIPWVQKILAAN
Sequence of UniProt P17812 (whole entry, looked up): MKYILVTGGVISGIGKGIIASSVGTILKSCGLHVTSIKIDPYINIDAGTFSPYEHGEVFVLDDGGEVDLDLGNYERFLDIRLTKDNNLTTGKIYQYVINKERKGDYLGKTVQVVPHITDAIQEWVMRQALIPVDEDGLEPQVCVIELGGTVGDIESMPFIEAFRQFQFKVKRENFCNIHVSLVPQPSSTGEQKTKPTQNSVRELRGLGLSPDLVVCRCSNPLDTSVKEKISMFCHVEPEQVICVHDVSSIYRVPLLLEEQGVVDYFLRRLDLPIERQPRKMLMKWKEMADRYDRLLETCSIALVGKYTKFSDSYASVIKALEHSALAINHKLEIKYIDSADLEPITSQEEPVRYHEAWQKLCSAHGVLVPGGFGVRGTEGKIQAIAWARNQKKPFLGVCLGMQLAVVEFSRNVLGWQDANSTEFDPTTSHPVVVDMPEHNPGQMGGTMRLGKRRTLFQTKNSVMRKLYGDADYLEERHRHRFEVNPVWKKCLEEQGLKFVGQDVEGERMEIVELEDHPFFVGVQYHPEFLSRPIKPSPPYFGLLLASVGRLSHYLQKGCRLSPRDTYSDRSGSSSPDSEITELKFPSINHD
Sequence of UniProt P30542 (whole entry, looked up): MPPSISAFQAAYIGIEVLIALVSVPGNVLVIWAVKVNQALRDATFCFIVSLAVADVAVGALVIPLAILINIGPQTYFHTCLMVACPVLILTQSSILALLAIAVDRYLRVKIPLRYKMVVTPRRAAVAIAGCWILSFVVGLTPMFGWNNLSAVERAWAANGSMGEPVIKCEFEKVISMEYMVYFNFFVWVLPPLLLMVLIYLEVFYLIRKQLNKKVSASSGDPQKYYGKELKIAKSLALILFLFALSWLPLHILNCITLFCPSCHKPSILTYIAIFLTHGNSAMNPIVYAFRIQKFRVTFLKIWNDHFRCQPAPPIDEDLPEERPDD

O=C(Cc1cccc(C(F)(F)F)c1)Nc1cc(Oc2c(F)cc3nc(NC(=O)C4CC4)sc3c2Cl)ccc1F  selectivity ratio (RIPK1; KINOMEscan binding Kd; relative to: RIPK1 over RIPK3, higher = more RIPK1-selective): > 135
COc1ccc(C=CC(=O)c2cccc(O)c2)cc1  selectivity ratio (ESR2 (Homo sapiens, UniProt Q92731); antagonist, yeast two-hybrid, SRC1; together with: estradiol 1 nM; relative to: IC50 ERα over IC50 ERβ): 1.31
CN1CCC=C(c2nsnc2OCCCN2CCN(CCCCC3CCN(CC(=O)N4c5ccccc5NC(=O)c5ccccc54)CC3)CC2)C1  selectivity ratio (CHRM3 (Homo sapiens, UniProt P20309); radioligand competition binding; CHO cells; relative to: Ki M3 over Ki M2): 180
CC[C@H](C)[C@H](NC(=O)[C@H](CCC(=O)O)NC(=O)[C@@H]1CCCN1C(=O)[C@H](CCCNC(=N)N)NC(C)=O)C(=O)N[C@@H](Cc1c[nH]c2ccccc12)C(=O)N[C@@H](Cc1ccc(O)cc1)C(=O)N[C@@H](C)C(=O)N[C@@H](CCC(N)=O)C(=O)NCC(=O)N[C@@H](CC(C)C)C(=O)N[C@@H](CCCCN)C(=O)N[C@@H](CCCNC(=N)N)C(=O)N[C@@H](Cc1ccccc1)C(=O)NCC(=O)N[C@@H](CC(=O)O)C(=O)N[C@@H](CCC(=O)O)C(=O)N[C@@H](Cc1ccccc1)C(=O)N[C@@H](CC(N)=O)C(=O)N[C@@H](C)C(=O)N[C@@H](Cc1ccc(O)cc1)C(=O)N[C@@H](CCCCN)C(=O)N[C@@H](C)C(=O)N[C@@H](CCCNC(=N)N)C(N)=O  selectivity ratio (BCL2 (Homo sapiens, UniProt P10415); binding, fluorescence polarization; relative to: Bcl-xL over Bcl-2): ~1000 fold
N[C@@H](CCC(=O)N[C@@H](CS[Se]Cc1ccc(-c2cccc(C(O)c3ccc(Cl)c(Cl)c3)c2)cc1)C(=O)NCC(=O)O)C(=O)O (stereo partly shown)  selectivity ratio (ACP1 (Homo sapiens, UniProt P24666); enzyme activity; together with: pNPP, GSH 1 mM; relative to: IC50 ACP1 over STEP): 8
COc1cccc(Cc2cc(CCC(=O)NCCNc3cccc4c(S(=O)(=O)O)cccc34)nn(CC(=O)Nc3ccc(Br)cc3)c2=O)c1  selectivity ratio (FPR1 (Homo sapiens, UniProt P21462); calcium mobilization, antagonist; HL-60 transfected with FPR1 or FPR2; relative to: FPR1 over FPR2): 1000 fold
CC[C@H](C)[C@@H]1NC(=O)[C@H](Cc2ccc(O)cc2)NC(=O)[C@@H](N)CSSC[C@@H](C(=O)N2CCC[C@H]2C(=O)N[C@@H](CC(C)C)C(=O)NCC(N)=O)NC(=O)[C@H](CC(N)=O)NC(=O)[C@H](CCC(N)=O)NC1=O  selectivity ratio (oxytocin receptor (Mesocricetus auratus, UniProt A0A1U7Q6Y0); competition binding; hamster brain sections; relative to: OTR over V1aR Ki): 116
COc1cc2nc(NC(=O)C3CC3)sc2cc1Oc1ccc(F)c(NC(=O)Cc2cccc(C(F)(F)F)c2)c1  selectivity ratio (RIPK1; KINOMEscan binding Kd; relative to: RIPK1 over RIPK3, higher = more RIPK1-selective): > 36
CSCC[C@@H]1NC(=O)[C@H](CCSC)NC(=O)[C@H](Cc2c[nH]c3ccccc23)NC(=O)[C@H]([C@@H](C)O)NC(=O)[C@@H]2CSSC[C@@H]3NC(=O)[C@H]([C@@H](C)O)NC(=O)[C@H](CC(N)=O)NC(=O)[C@H](CSSC[C@@H](C(=O)N[C@@H](CCCNC(=N)N)C(=O)N[C@@H](CCC(N)=O)C(=O)O)NC1=O)NC(=O)[C@H](CCCCN)NC(=O)[C@H](CC(=O)O)NC(=O)[C@H](CCCCN)NC(=O)[C@H](Cc1ccccc1)NC(=O)[C@H]([C@@H](C)O)NC(=O)[C@H]([C@@H](C)O)NC(=O)CNC(=O)[C@@H]1CCCN1C(=O)[C@H](CCC(=O)O)NC(=O)[C@@H](NC(=O)[C@@H](NC(=O)[C@@H](NC(=O)[C@@H](N)CCC(=O)O)C(C)C)[C@@H](C)O)CSSC[C@H](NC(=O)[C@H](CCCNC(=N)N)NC3=O)C(=O)NCC(=O)N[C@@H](CO)C(=O)N[C@@H](CC(=O)O)C(=O)NCC(=O)N[C@@H](CCCCN)C(=O)N[C@@H](CO)C(=O)N[C@@H](C)C(=O)NCC(=O)N2  selectivity ratio (Chymotrypsinogen B2 (Homo sapiens, UniProt Q6GPI1, Y164H); binding, equilibrium binding; relative to: CTRB2 over CTRB1): 3 fold
O=C(Cc1cccc(C(F)(F)F)c1)Nc1cc(Oc2c(Br)cc3nc(NC(=O)C4CC4)sc3c2Br)ccc1F  selectivity ratio (RIPK1; KINOMEscan binding Kd; relative to: RIPK1 over RIPK3, higher = more RIPK1-selective): > 19
COc1ccc(-c2nc(CSc3nc(N)c(C#N)c(-c4ccccc4)c3C#N)cs2)cc1  selectivity ratio (ADORA1 (Homo sapiens, UniProt P30542); binding, radioligand competition; HEK293 membranes; together with: [3H]DPCPX; relative to: A2A Ki over A1 Ki): 29 fold
Cc1cc2nc(NC(=O)C3CC3)sc2c(C)c1Oc1ccc(F)c(NC(=O)Cc2cccc(C(F)(F)F)c2)c1  selectivity ratio (RIPK1; KINOMEscan binding Kd; relative to: RIPK1 over RIPK3, higher = more RIPK1-selective): > 100
CCOc1cncc(-c2ccc(NC(=O)C(CC)c3ccnc(NS(=O)(=O)C4CC4)n3)nc2)n1 (stereo not shown)  selectivity ratio (CTP synthase 1 (Homo sapiens, UniProt P17812); enzyme activity; human; relative to: CTPS2 over target IC50): 126

A few entries again:
CSCC[C@@H]1NC(=O)[C@H](CCSC)NC(=O)[C@H](Cc2c[nH]c3ccccc23)NC(=O)[C@H]([C@@H](C)O)NC(=O)[C@@H]2CSSC[C@@H]3NC(=O)[C@H]([C@@H](C)O)NC(=O)[C@H](CC(N)=O)NC(=O)[C@H](CSSC[C@@H](C(=O)N[C@@H](CCCNC(=N)N)C(=O)N[C@@H](CCC(N)=O)C(=O)O)NC1=O)NC(=O)[C@H](CCCCN)NC(=O)[C@H](CC(=O)O)NC(=O)[C@H](CCCCN)NC(=O)[C@H](Cc1ccccc1)NC(=O)[C@H]([C@@H](C)O)NC(=O)[C@H]([C@@H](C)O)NC(=O)CNC(=O)[C@@H]1CCCN1C(=O)[C@H](CCC(=O)O)NC(=O)[C@@H](NC(=O)[C@@H](NC(=O)[C@@H](NC(=O)[C@@H](N)CCC(=O)O)C(C)C)[C@@H](C)O)CSSC[C@H](NC(=O)[C@H](CCCNC(=N)N)NC3=O)C(=O)NCC(=O)N[C@@H](CO)C(=O)N[C@@H](CC(=O)O)C(=O)NCC(=O)N[C@@H](CCCCN)C(=O)N[C@@H](CO)C(=O)N[C@@H](C)C(=O)NCC(=O)N2  selectivity ratio (Chymotrypsinogen B2 (Homo sapiens, UniProt Q6GPI1, Y164H); binding, equilibrium binding; relative to: CTRB2 over CTRB1): 3 fold
